Experimental data gathered from unrelated publications.
A part holds a random share of what one study measured.

Set 1
Target: PABPC1L2, full length, GST fusion (mouse, UniProt A0ABA7IW68)
Technique: RNAcompete
Form: RNA
Medium: in vitro
Tested at: 20 nM
Setting: 7-mer, probes averaged, single round
Reference: mean of 7-mers
Direction: higher = stronger binding
Target sequence (chain): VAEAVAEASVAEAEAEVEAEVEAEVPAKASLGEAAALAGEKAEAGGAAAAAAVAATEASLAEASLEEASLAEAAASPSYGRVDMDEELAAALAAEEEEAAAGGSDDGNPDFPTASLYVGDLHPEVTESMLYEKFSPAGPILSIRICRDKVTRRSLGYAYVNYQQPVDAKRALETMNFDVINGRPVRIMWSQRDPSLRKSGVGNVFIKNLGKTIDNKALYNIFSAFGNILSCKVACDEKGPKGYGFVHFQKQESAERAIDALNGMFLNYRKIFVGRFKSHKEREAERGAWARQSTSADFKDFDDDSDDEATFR
`AGACGGG` gave a 7-mer Z-score of -0.144.
`AAGCUGC` gave a 7-mer Z-score of 0.218.
`UCGAGCU` has a 7-mer Z-score of -0.246.
With `GAGCAGC` the 7-mer Z-score was -0.175.
For `UGAAAUG`, the 7-mer Z-score was -0.0699.
The 7-mer Z-score of `GGUUGGA` is reported as 0.0623.
`ACUACUC` gave a 7-mer Z-score of -0.164.
With `GUGAUCU` the 7-mer Z-score was -0.184.
The 7-mer Z-score of `GCCUAUU` is reported as -0.344.
`AAGUUUG` gave a 7-mer Z-score of -0.121.
For `AGGCAUU`, the 7-mer Z-score was 0.113.
With `UAUGCGG` the 7-mer Z-score was 0.0442.
`UUUGUUA` gave a 7-mer Z-score of -0.358.
`GACAGAA` has a 7-mer Z-score of 0.329.
For `GGGCGCC`, the 7-mer Z-score was -0.195.
With `UUCAAUA` the 7-mer Z-score was 0.000733.
The 7-mer Z-score of `GGCUGGG` is reported as 0.0986.
`UGAGGUU` gave a 7-mer Z-score of -0.228.
`UGGCAAA` gave a 7-mer Z-score of 0.697.
The 7-mer Z-score of `GCAAUUU` is reported as -0.0736.
`CAUCGCA` has a 7-mer Z-score of -0.171.

Set 2
Target: Fragile X messenger ribonucleoprotein 1, C-terminal low-complexity region (Fmr1, Mus musculus, UniProt P35922)
Technique: RNA Bind-n-Seq
Form: RNA
Medium: in vitro
Tested at: 200 nM
Setting: whole 134-nt RNA, ends assumed
Together with: 150 mM KCl
Reference: input library
Direction: higher = stronger binding
The log2 enrichment of `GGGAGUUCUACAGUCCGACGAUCAAGUCCUGUGCUACACAUCGUAUGUACCGAAUCGGGGUUUGGGGAAAGGGGAGGGGAAAGUAUUAUGUUACGCCGUUCGGAUCUGCACUUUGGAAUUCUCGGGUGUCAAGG` is reported as 0.722.
`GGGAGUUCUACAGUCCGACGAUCACCAUGCAGGUGGGCAUCUUUGCGAAGUGGGGCAAGGGGGGGAUAGGGAGGGGGGUAACACUUUGGGAACAGGUGGUCCCAGGUCGUUUCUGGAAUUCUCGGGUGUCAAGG` gave a log2 enrichment of 1.2.
`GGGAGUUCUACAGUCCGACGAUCCUCAAGUCCUGUGCUACACAUCGUAUGUACCGAAUCGGAGGAAAAAAAGGUGGAAAGUAUUAUGUUACGCCGUUCGGAUCUGCACUUCCAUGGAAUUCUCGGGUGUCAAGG` gave a log2 enrichment of -0.27.
With `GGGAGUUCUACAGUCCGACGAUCCCUCAAGUCCUGUGCUACACAUCGUAUGUACCGAAUCGGGGAGGGAGGAGGGGAAAGUAUUAUGUUACGCCGUUCGGAUCUGCACUUCCAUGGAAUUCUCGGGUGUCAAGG` the log2 enrichment was 1.2.
`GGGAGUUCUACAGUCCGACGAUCCACAGACAACACGCACCCACACAGACACAGAGGGAAGGGGUUGGGAUGGGGACAGGGUGCACAGCAGGGCGGGGUAGGACCCCCGCCCCUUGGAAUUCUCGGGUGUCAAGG` has a log2 enrichment of 1.38.
`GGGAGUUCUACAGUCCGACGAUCUGGCUGGCUGUGGCCUCACAGCUGAGGACUGCAAGGACCUUGCCUUUGGGCUGAGAGCCAACCAGACCCUGACCGAGCUGGACCUGAGCUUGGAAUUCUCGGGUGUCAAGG` gave a log2 enrichment of -2.12.
The log2 enrichment of `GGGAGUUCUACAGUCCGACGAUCCUGUGCUACACAUCGUAUGUACCGAAUCGGGGAAAAAAGGGGAAAAAAGGGGAAAAAAGGGGAAAGUAUUAUGUUACGCCGUUCGGAUCUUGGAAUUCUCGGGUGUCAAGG` is reported as -0.118.
For `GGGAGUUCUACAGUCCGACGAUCUCCUCAAGUCCUGUGCUACACAUCGUAUGUACCGAAUCGGCGGCGGGCGGGGAAAGUAUUAUGUUACGCCGUUCGGAUCUGCACUUCCAGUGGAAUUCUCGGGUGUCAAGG`, the log2 enrichment was 0.444.
`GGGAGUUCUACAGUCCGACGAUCCCUGUGCUACACAUCGUAUGUACCGAAUCGGGGCCCCCCCGGCCCCCCCGGCCCCCCCGGAAAGUAUUAUGUUACGCCGUUCGGAUCUGCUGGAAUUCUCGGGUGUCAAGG` has a log2 enrichment of -0.177.
`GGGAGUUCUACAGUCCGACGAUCAAGUCCUGUGCUACACAUCGUAUGUACCGAAUCGGUGGAAAAAAAGGAAAAAAAGGAAAGUAUUAUGUUACGCCGUUCGGAUCUGCACUUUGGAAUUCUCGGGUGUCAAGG` gave a log2 enrichment of -0.725.

Set 3
Target: RING finger protein unkempt homolog, zinc fingers 1-6, GST-SBP tag (UNK, Homo sapiens, UniProt Q9C0B0, residues 30-357)
Technique: RNA Bind-n-Seq
Form: RNA
Medium: in vitro
Tested at: not given
Setting: RNA with constant flanks, human-mouse chimeric sites, ends assumed
Reference: input RNA pool
Direction: higher = stronger binding
Construct (chain): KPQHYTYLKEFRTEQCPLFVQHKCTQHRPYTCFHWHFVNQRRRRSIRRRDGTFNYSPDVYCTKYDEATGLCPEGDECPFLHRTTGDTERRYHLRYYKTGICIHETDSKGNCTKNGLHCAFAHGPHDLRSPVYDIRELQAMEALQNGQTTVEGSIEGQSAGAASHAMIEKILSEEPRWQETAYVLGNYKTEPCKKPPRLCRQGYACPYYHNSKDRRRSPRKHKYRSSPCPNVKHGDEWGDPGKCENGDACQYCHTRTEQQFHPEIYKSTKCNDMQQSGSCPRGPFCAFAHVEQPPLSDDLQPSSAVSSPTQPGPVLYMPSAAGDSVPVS
`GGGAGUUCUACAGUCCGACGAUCAACAGAUUGUCUUUAAGCAUUCCAAGCGAGAAUGCUGGGGUGAUCAUAAUUACCCACGUGCCUUCUGACUGAGCUUUAAUGCUGUUCCAUGUUACAUCUUUCCUUCAUUGCAUAUUUGUUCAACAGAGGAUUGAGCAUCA` has a bound/input enrichment of 0.115 ratio.
With `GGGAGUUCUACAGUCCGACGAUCAUUCCGAUUAUGGACACCGGUGAAAACCCAGAGGUUCCCUUCCCUCGGGACAUGAUUGACUUAGAGGCCAAUUUCGAGAAGAUUGAAAAUGAACUGAAGGAAAUCAACACAAACCAGGAACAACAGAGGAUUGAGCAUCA` the bound/input enrichment was 0.101 ratio.
With `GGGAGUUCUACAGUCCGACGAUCGUGCCCUUCUCGCUGCUGCGGAGCCCGAGCUGGGAACCAUUCCGGGACUGGUACCCUCCGCAUAGCCGCCUCUUCGAUCAAGCUUUCGGGCUGCCCCGGUUGCCCGAUGAGUGGUCGCAGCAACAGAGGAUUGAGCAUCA` the bound/input enrichment was 0.036 ratio.
The bound/input enrichment of `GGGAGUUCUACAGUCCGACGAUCAGGAGGAGAUUAAAGGGUGAGAGUGGGGUGGAAGACUGUGUCAUGGCCCUAGAAACCCUGUUCAGUGUCCUGCUUUCUCUGUGCAGACUGAUGGCCCCUUACACGCCCUUUCUGACUGAGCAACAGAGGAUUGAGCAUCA` is reported as 0.0388 ratio.
For `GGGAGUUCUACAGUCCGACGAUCGUGCCCUUCUCGCUGCUGCGGAGCCCGAGCUGGGAACCAUUCCGGGACUGGUACCCUGCACACAGCCGCCUCUUCGACCAGGCCUUCGGGCUGCCCCGGUUGCCCGAUGAGUGGUCGCAGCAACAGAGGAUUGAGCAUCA`, the bound/input enrichment was 0.0623 ratio.
With `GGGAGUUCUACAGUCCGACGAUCCACAGAGGCACCACCCCCCCCUCCUCCUUUCCACACCUGCAAACUCUUUUACUUGGGCUGCAUAGUUAGUGUAAUUACAUCUCAGCUUUGAGGGCUCCUGUGGCAAAUUCCCGGAUUAAACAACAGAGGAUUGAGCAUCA` the bound/input enrichment was 2.78 ratio.
With `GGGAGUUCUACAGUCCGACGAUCAGAUUCCCUCUCUUAAAACCUCCUCCGAAGUUGGAGUCUCUUACAGAUGCCUCAUCCCCUGUUAGCGUUUUAGUUUGGACCACCCAGCCUUGGACGAUUCCCGCCAACCAGGCAAUUUGCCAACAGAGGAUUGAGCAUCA` the bound/input enrichment was 0.682 ratio.
With `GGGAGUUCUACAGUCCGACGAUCUAAAUUAGGGCUGCCGUCCGUUCUCACGCCCUGAGCUGCGGAAAGCCAGAAGAUUUUAUCUAGCUUAUACAAGGCUGCUGGUGUUCCCUCUUUUUUUCCACGAGGGUGUUUUUGGCUGCACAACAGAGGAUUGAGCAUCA` the bound/input enrichment was 0.538 ratio.

Set 4
Target: Prothrombin, mature alpha-thrombin (F2, Homo sapiens, UniProt P00734)
Technique: aptamer microarray, sandwich
Form: DNA with 2'F-ANA
Medium: in vitro
Tested at: 200 nM
Setting: whole 15-mer aptamer, many near background
Together with: Cy3 exosite-II aptamer, 400 nM
Direction: higher = stronger binding
Strand: GGTTGGTGTGGTTGG
`2'F-ANA at 10 12 13 15` — result for “mean fluorescence intensity”: 218 a.u.
For `2'F-ANA at 1 2 4 5 6 8 9 12 13 14 15`, “mean fluorescence intensity” read 54 a.u.
`2'F-ANA at 1 5 9 10 15`: “mean fluorescence intensity” 45.6 a.u.
Under “mean fluorescence intensity”, `2'F-ANA at 1 3 5 10 11 12 15` is recorded as 54.7 a.u.
`2'F-ANA at 3 4 5 10 14`: “mean fluorescence intensity” 56.9 a.u.
`2'F-ANA at 1 3 4 6 11 13` — result for “mean fluorescence intensity”: 122 a.u.
`2'F-ANA at 4 6 7 8 9 10 11 14` — result for “mean fluorescence intensity”: 66.1 a.u.
Under “mean fluorescence intensity”, `2'F-ANA at 1 2 3 4 5 6 7 8 12 14 15` is recorded as 49.5 a.u.
`2'F-ANA at 1 3 4 5 7 10 11 13 14 15`: “mean fluorescence intensity” 86.3 a.u.
Under “mean fluorescence intensity”, `2'F-ANA at 2 3 4 5 6 8 11 13 14 15` is recorded as 62.1 a.u.
`2'F-ANA at 2 4 8 10 13 15` — result for “mean fluorescence intensity”: 154 a.u.
`2'F-ANA at 3 4 5 7 9 10 11 12 13 15` — result for “mean fluorescence intensity”: 54.9 a.u.
`2'F-ANA at 3 7 9 10 12 13 15`: “mean fluorescence intensity” 568 a.u.
`2'F-ANA at 1 2 4 5 7 12` — result for “mean fluorescence intensity”: 105 a.u.
`2'F-ANA at 1 4 9 10`: “mean fluorescence intensity” 46.5 a.u.
For `2'F-ANA at 1 4 9 10 12 15`, “mean fluorescence intensity” read 58.6 a.u.
Under “mean fluorescence intensity”, `2'F-ANA at 1 3 5 6 7 8 9 10 12 14 15` is recorded as 50.3 a.u.
Under “mean fluorescence intensity”, `2'F-ANA at 1 4 7 8 9 10 11 13` is recorded as 48.1 a.u.
`2'F-ANA at 3 5 7 10 11 14`: “mean fluorescence intensity” 64.7 a.u.
`2'F-ANA at 2 3 6 11 13 14` — result for “mean fluorescence intensity”: 332 a.u.
For `2'F-ANA at 1 2 3 9 11 12 14`, “mean fluorescence intensity” read 81.8 a.u.
Under “mean fluorescence intensity”, `2'F-ANA at 2 8 9 13 14 15` is recorded as 142 a.u.
Under “mean fluorescence intensity”, `2'F-ANA at 1 3 7 8 9 10 12 15` is recorded as 127 a.u.
`2'F-ANA at 2 3 4 9 10 13 14 15` — result for “mean fluorescence intensity”: 168 a.u.
For `2'F-ANA at 1 4 5 8 10 12 13 14 15`, “mean fluorescence intensity” read 55.4 a.u.

For quick reference, copied from above (set 4):
Under “mean fluorescence intensity”, `2'F-ANA at 1 2 3 4 5 6 7 8 12 14 15` is recorded as 49.5 a.u.
`2'F-ANA at 1 5 9 10 15`: “mean fluorescence intensity” 45.6 a.u.
`2'F-ANA at 2 3 6 11 13 14` — result for “mean fluorescence intensity”: 332 a.u.
`2'F-ANA at 1 2 4 5 7 12` — result for “mean fluorescence intensity”: 105 a.u.
`2'F-ANA at 3 4 5 7 9 10 11 12 13 15` — result for “mean fluorescence intensity”: 54.9 a.u.
For `2'F-ANA at 1 4 5 8 10 12 13 14 15`, “mean fluorescence intensity” read 55.4 a.u.
For `2'F-ANA at 1 2 4 5 6 8 9 12 13 14 15`, “mean fluorescence intensity” read 54 a.u.
Under “mean fluorescence intensity”, `2'F-ANA at 1 3 7 8 9 10 12 15` is recorded as 127 a.u.
